# Assay results pooled from the literature.
# Every numbered part comes from another study and shows a few of its results, in no order.

# Sample 1 — technique: universal PBM; molecule type: double-stranded DNA, one strand shown; sample: in vitro; concentration: 600 nM; reading: higher = stronger binding
# Target: Sal-like protein 4, full length isoform A (SALL4, Homo sapiens, UniProt Q9UJQ4, residues 1-1053)
# Chain of UniProt Q9UJQ4 (whole entry, looked up): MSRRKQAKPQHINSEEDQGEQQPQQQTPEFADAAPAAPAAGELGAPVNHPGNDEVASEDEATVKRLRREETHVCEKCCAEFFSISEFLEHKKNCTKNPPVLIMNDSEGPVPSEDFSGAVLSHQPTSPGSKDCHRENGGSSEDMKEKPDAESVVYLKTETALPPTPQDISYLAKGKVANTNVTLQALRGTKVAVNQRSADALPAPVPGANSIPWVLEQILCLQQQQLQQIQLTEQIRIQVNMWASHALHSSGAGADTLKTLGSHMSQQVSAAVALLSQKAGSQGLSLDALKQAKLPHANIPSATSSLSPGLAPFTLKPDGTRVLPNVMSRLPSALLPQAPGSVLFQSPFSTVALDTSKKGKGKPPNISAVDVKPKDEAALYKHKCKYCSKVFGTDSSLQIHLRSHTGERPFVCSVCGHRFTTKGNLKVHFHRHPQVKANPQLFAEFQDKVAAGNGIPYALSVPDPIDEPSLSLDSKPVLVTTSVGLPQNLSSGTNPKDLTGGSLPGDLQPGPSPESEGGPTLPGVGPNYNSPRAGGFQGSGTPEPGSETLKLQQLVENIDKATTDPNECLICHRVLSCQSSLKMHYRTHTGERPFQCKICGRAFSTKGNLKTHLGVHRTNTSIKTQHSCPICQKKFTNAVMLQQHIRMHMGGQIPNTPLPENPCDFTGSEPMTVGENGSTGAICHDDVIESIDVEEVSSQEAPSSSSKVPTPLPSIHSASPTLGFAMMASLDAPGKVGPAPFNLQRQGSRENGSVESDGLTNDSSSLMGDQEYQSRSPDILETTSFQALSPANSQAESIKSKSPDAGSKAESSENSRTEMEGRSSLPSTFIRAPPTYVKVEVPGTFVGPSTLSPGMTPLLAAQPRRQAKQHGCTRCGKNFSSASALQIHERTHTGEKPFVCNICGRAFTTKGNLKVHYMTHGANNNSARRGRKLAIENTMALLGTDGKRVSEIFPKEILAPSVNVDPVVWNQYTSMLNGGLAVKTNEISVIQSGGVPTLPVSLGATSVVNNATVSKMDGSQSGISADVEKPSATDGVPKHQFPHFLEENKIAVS
# Setting: 8-mer, flanks averaged, mean of replicates
Strand,E-score
AGTGTGGA,0.0689
ACCGCCAC,-0.148
CTATCATC,0.207
AATGCACT,0.207
AAGCATCC,-0.0402
AAACCCTC,-0.0356
ACCCCTAT,-0.117
ACCTGAAG,0.0146
AACTGGCA,-0.0949
AGGCCGTG,-0.305
CAACGGAA,0.0704

# Sample 2 — technique: protein binding microarray; molecule type: double-stranded DNA, one strand shown; sample: in vitro; concentration: not given; baseline: not given; reading: higher = stronger binding
# Target: Histone acetyltransferase KAT6A, winged helix 2, GST fusion (KAT6A, Homo sapiens, UniProt Q92794, residues 85-181)
# Setting: 8-mer, flanks averaged, mean of 2 arrays, mostly near background
# Target sequence (chain): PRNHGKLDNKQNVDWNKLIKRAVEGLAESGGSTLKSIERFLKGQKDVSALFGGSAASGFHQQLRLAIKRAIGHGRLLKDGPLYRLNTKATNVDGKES
Strand,E-score
CCTAATGC,-0.116
CTCCGAAG,0.224
GAGGTGAA,0.108
ATGCGACG,0.0726
CGCCTAAA,0.0997
CATGGTTA,-0.0906
ATTCAGAG,-0.00677
GTGCTACA,-0.15
CGGGAAAG,0.241
TGGAACAA,0.0438

# Sample 3 — technique: Sort-seq; refers to: YFP reporter; sample: E. coli; setting: PhoQ-PhoP variant library; together with: 10 µM Mg2+; baseline: high Mg2+ state; reading: higher = stronger signaling
# Substance: PhoQ, residues 284 288 289 292 302 303 SSLVEF
target,fold induction
"PhoP, residues 12 14 15 18 19 NYFRM (Escherichia coli, UniProt P23836)",4.11
"PhoP, residues 12 14 15 18 19 QYFSL (Escherichia coli, UniProt P23836)",12.2
"PhoP, residues 12 14 15 18 19 TQALL (Escherichia coli, UniProt P23836)",8.83

# Sample 4 — technique: protein-binding microarray; molecule type: double-stranded DNA, one strand shown; sample: in vitro; concentration: 2540 nM top; setting: 60-bp whole probe; together with: salmon DNA 0.4 mg/ml; baseline: random background probes; reading: higher = stronger binding; constant ends, left off below: GCCTAGCAC … GTCTTGATTCGCTTGACGCTGCTG
# Target: Interferon regulatory factor 3, full length, phosphomimetic (IRF3, Homo sapiens, UniProt Q14653, residues 1-427, S386D/S396D/S398D/S402D/T404D/S405D)
# Chain of UniProt Q14653 (whole entry, unmodified, looked up): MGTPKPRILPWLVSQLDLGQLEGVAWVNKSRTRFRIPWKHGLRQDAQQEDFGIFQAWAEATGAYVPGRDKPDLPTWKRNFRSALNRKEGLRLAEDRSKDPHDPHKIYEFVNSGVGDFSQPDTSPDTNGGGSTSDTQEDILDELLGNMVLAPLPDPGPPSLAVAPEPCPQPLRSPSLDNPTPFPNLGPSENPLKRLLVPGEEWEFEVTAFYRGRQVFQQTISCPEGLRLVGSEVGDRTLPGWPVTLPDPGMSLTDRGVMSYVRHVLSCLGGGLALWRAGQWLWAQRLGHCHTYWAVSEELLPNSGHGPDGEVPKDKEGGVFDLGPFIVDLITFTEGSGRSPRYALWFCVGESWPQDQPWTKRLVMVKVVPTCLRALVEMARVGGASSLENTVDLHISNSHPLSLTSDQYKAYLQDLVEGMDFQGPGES
Strand,fitted relative affinity
GACGGTCTCGGTATGGGGACGTGCTAG,0.741 z-score
ACCGATTTCCTTCACCCACTGTGCTAG,2.36 z-score
GACGGTAACGACTTTCGGGACGTGCTA,0.404 z-score
TTAGGACTGGACTAGCGGTTAGTGCTA,-0.505 z-score
TTAGAACTGAGTTACGATTAGTGCTAG,-0.0893 z-score
TTAGGACTGCGGTTTCGGTTAGTGCTA,3.71 z-score
TTGGGTTTCGGTTCCGGTTAGTGCTAG,9.34 z-score
TCATTTTTCTAATTGAAACTGTGCTAG,2.38 z-score
GACGGTCTCCTTTTCCTAACGTGCTAG,5.35 z-score
TAGTTGCAAGCCATGGGTGGGTGCTAG,-0.513 z-score
GACGGACTCCTTATCCTGACGTGCTAG,0.904 z-score

# For quick reference, copied from above (sample 4):
Strand,fitted relative affinity
TTAGAACTGAGTTACGATTAGTGCTAG,-0.0893 z-score
TTAGGACTGCGGTTTCGGTTAGTGCTA,3.71 z-score
TTGGGTTTCGGTTCCGGTTAGTGCTAG,9.34 z-score
